Results of several laboratories.
± marks the error that the study gave.
rep main protease: Replicase polyprotein 1ab, main protease (rep, Severe acute respiratory syndrome coronavirus 2, UniProt P0DTD1)
Spike glycoprotein: Spike glycoprotein (Severe acute respiratory syndrome coronavirus 2, UniProt P0DTC2)
B1: cytochrome c peroxidase H52E; sequence looked up; chain TTPLVHVASVEKGRSYEDFQKVYNAIALKLREDDEYDNYIGYGPVLVRLAWETSGTWDKHDNTGGSYGGTYRFKKEFNDPSNAGLQNGFKFLEPIHKEFPWISSGDLFSLGGVTAVQEMQGPKIPWRCGRVDTPEDTTPDNGRLPDADKDADYVRTFFQRLNMNDREVVALMGAHALGKTHLKNSGYEGPWGAANNVFTNEFYLNLLNEDWKLEKNDANNEQWDSKSGYMMLPTDYSLIQDPKYLSIVKEYANDQDKFFKDFSKAFEKLLENGITFPKDAPSPFIFKTLEEQGL
B2: cytochrome c peroxidase H52Q; sequence looked up; chain TTPLVHVASVEKGRSYEDFQKVYNAIALKLREDDEYDNYIGYGPVLVRLAWQTSGTWDKHDNTGGSYGGTYRFKKEFNDPSNAGLQNGFKFLEPIHKEFPWISSGDLFSLGGVTAVQEMQGPKIPWRCGRVDTPEDTTPDNGRLPDADKDADYVRTFFQRLNMNDREVVALMGAHALGKTHLKNSGYEGPWGAANNVFTNEFYLNLLNEDWKLEKNDANNEQWDSKSGYMMLPTDYSLIQDPKYLSIVKEYANDQDKFFKDFSKAFEKLLENGITFPKDAPSPFIFKTLEEQGL
Sequence of UniProt P0A8T7 (whole entry, looked up): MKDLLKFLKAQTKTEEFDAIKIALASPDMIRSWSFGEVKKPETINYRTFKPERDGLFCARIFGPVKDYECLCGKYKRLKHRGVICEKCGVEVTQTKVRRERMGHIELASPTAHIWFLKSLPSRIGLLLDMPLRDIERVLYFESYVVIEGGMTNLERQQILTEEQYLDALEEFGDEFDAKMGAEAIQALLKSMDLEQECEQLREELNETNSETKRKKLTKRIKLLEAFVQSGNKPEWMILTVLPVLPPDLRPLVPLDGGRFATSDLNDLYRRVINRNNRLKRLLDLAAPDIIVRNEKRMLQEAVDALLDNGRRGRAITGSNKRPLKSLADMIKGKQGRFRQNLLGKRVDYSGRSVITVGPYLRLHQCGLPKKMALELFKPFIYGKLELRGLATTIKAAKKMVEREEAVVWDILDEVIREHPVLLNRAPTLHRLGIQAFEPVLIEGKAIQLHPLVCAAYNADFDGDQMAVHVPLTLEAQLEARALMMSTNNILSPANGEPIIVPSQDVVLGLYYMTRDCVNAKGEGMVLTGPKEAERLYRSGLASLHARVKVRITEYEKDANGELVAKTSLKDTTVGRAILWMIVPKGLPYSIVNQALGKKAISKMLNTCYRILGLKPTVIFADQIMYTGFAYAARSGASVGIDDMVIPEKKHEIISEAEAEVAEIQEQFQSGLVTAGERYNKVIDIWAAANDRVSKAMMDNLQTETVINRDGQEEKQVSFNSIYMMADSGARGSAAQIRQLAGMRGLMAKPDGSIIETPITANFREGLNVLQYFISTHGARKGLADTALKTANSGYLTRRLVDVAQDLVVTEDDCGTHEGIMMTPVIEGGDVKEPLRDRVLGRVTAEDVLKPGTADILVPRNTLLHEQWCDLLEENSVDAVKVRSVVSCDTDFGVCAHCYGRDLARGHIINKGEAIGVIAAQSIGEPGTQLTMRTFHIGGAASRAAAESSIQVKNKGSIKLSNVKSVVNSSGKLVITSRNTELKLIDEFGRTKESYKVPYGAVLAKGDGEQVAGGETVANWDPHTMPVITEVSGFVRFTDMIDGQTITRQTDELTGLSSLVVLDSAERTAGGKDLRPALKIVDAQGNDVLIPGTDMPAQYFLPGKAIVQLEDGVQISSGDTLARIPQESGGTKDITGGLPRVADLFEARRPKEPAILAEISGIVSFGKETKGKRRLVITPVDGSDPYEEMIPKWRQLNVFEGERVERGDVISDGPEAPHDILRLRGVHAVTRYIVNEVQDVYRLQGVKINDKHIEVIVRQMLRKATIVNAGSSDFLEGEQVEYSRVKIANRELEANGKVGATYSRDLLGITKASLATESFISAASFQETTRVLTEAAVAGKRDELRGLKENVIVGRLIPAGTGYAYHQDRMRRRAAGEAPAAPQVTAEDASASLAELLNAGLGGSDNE
Sequence of UniProt P33261 (whole entry, looked up): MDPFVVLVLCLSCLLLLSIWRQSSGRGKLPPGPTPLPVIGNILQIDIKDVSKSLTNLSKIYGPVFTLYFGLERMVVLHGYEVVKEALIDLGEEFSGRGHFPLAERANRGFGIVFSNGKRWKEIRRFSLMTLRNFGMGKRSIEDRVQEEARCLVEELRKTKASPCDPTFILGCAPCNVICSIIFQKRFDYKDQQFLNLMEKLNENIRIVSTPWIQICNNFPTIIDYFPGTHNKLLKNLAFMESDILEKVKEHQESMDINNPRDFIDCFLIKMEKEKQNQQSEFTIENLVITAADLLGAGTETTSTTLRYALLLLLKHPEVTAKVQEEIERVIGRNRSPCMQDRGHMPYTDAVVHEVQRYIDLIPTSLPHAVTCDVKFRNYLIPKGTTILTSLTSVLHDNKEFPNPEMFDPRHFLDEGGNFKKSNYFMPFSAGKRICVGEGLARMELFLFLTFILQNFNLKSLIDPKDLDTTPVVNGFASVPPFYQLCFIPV
Sequence of UniProt P0A8V2 (whole entry, looked up): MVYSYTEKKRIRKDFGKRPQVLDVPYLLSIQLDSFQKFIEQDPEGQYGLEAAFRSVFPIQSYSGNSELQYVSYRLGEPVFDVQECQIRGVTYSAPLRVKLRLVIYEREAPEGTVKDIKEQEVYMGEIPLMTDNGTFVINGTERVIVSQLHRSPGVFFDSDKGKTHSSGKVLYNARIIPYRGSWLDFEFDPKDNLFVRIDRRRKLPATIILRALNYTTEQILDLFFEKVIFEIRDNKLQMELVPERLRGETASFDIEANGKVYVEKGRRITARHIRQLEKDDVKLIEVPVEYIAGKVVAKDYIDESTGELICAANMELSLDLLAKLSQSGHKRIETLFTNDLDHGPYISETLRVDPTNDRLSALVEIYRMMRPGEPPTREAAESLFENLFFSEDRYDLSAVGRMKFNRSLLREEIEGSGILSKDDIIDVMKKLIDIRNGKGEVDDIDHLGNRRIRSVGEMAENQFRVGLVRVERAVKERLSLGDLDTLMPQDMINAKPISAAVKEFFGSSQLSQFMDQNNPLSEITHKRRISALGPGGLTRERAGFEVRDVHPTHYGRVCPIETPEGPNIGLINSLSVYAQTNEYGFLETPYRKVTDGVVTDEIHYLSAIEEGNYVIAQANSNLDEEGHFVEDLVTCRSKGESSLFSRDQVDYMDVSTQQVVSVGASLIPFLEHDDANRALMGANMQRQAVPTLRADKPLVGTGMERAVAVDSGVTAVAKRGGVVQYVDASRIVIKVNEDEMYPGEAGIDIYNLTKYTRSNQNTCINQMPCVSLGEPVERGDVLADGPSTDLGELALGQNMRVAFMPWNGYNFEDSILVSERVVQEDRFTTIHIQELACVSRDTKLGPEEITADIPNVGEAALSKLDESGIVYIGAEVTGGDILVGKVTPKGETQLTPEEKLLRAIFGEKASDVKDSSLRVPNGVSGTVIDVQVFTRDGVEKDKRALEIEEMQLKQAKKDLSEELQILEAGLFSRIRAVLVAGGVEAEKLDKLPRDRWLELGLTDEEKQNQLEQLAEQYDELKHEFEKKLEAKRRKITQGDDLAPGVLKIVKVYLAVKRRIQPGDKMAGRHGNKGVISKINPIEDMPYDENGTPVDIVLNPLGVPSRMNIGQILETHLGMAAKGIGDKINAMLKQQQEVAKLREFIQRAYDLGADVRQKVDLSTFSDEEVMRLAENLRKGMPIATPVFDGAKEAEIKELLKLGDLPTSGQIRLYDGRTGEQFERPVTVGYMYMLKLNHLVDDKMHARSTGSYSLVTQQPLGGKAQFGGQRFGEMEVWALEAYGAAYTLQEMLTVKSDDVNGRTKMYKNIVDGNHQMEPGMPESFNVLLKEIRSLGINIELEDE
Sequence of UniProt P42264 (whole entry, looked up): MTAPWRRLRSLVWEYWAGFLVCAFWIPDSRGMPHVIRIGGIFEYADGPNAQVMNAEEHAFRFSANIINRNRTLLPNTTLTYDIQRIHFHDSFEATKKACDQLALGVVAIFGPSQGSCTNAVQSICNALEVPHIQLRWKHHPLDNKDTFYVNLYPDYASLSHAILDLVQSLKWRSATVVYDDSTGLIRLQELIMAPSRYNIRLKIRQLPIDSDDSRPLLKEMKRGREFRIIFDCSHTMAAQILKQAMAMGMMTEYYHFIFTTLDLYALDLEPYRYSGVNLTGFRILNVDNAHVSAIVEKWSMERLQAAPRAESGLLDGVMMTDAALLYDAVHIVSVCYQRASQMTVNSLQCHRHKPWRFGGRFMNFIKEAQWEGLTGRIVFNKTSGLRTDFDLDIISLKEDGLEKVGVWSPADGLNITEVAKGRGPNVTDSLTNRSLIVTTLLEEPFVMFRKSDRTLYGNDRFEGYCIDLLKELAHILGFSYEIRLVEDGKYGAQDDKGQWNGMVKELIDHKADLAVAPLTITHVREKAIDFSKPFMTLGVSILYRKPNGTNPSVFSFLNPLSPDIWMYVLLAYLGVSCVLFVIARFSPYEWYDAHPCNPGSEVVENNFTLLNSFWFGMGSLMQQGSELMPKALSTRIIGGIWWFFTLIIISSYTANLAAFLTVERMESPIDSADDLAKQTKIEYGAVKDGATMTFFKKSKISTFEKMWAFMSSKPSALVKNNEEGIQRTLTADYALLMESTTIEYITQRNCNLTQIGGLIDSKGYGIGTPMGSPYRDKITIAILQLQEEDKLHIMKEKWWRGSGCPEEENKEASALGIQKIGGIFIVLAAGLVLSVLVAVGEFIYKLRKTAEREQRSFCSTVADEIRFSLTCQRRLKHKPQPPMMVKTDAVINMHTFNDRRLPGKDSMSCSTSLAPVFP

Substance | target or system | assay | test system | setting | how to read | endpoint | result
N[C@@H](CCCCNC(=O)OCc1ccc([N+](=O)[O-])cc1)C(=O)N1CCCC1 | rep main protease | viral replication, mKate2 reporter | SARS-CoV-2 | 20 µM | – | inhibition | -0.746%
C[C@@H]1O[C@@H](O[C@H]2C(=O)c3c(O)cc(O)cc3O[C@@H]2c2ccc(O)c(O)c2)[C@H](O)[C@H](O)[C@H]1O | Spike glycoprotein | binding, BLI | – | – | – | Kd | 32.5 µM
COc1cc(/C=C2\CCCN([C@@H](C)c3ccc(F)cc3)C2=O)ccc1-n1cnc(C)c1 | rep main protease | viral replication, mKate2 reporter | SARS-CoV-2 | 20 µM | – | inhibition | -0.0348%
CO[C@H]1[C@@H](O)[C@H](O[C@@H]2[C@@H](C)O[C@@H](O[C@H]3CC[C@@]4(C)[C@@H](CC[C@@]56O[C@@]57CC[C@@H](C(C)=O)[C@@]7(C)[C@H](OC(C)=O)[C@@H](OC(=O)c5ccccc5)[C@H]46)C3)C[C@H]2OC)O[C@H](C)[C@H]1O | Spike glycoprotein | binding, biolayer interferometry | – | – | – | Kd | 182 µM
Nc1ncnc2c1c(I)cn2[C@@H]1O[C@H](CO)[C@@H](O)[C@H]1O | HEK293T | reporter gene, firefly luciferase | – | 24 h, together with: Marburg VP24 | – | IC50 | 0.44 µM
B1 (cytochrome c peroxidase H52E) | cyanide binding | spectrophotometric titration | – | pH 6.0, 25 °C, together with: cyanide | – | Kd | 100 µM
O=c1cc(-c2ccccc2)c2ccc(O)c(O)c2o1 | Spike glycoprotein | binding, biolayer interferometry | – | – | – | Kd | 61.1 µM
CC[C@H](C)[C@H](NC(=O)[C@H](CC(C)C)NC(=O)[C@H](CO)NC(=O)[C@H](Cc1c[nH]cn1)NC(=O)[C@@H](NC(=O)[C@H](CC(C)C)NC(=O)[C@H](CO)NC(=O)[C@@H](NC(=O)[C@H](Cc1ccc(O)cc1)NC(=O)[C@H](CC(N)=O)NC(=O)[C@H](CC(N)=O)NC(=O)[C@@H](NC(=O)[C@H](CCC(=O)O)NC(=O)[C@H](CCCNC(=N)N)NC(=O)[C@H](CC(=O)O)NC(=O)[C@H](Cc1c[nH]c2ccccc12)NC(=O)[C@H](CCC(=O)O)NC(=O)[C@H](CCSC)NC(=O)[C@H](Cc1c[nH]c2ccccc12)NC(C)=O)[C@@H](C)CC)[C@@H](C)O)[C@@H](C)CC)C(=O)N[C@@H](CCC(=O)O)C(=O)N[C@@H](CCC(=O)O)C(=O)N[C@@H](CO)C(=O)N[C@@H](CCC(N)=O)C(=O)N[C@@H](CC(N)=O)C(=O)N[C@@H](CCC(N)=O)C(=O)N[C@@H](CCC(N)=O)C(=O)N[C@@H](CCC(=O)O)C(=O)N[C@@H](CCCCN)C(=O)N[C@@H](CC(N)=O)C(=O)N[C@@H](CCC(=O)O)C(=O)N[C@@H](CCC(N)=O)C(=O)N[C@@H](CCC(=O)O)C(=O)N[C@@H](CC(C)C)C(=O)N[C@@H](CC(C)C)C(=O)NCC(=O)N[C@@H](CO)C(=O)NCC(=O)N[C@@H](CSCC(=O)O[C@H]1CC[C@@]2(C)C(=CC[C@H]3[C@@H]4CC[C@H]([C@H](C)CCCC(C)(C)O)[C@@]4(C)CC[C@@H]32)C1)C(N)=O | – | membrane binding, di-8-ANEPPS dipole potential | POPC LUVs | – | – | Kd | 11 ± 7.7 µM
CNC(=O)[C@@H](NC(=O)[C@H](CC(C)C)[C@H](O)C(=O)NO)C(C)(C)C | Daboia russelii venom proteases (SVMP) | protease activity, inhibitor | KL population | 10 µM, together with: azocasein substrate | relative to: venom alone | remaining activity | 0%
B2 (cytochrome c peroxidase H52Q) | cyanide binding | spectrophotometric titration | – | pH 6.0, 25 °C, together with: cyanide | – | Kd | 6100 µM
N[C@@H](C[C@]1(C(=O)O)C[C@H]2OC[C@@H](O)[C@@H](O)[C@H]2O1)C(=O)O | Glutamate receptor ionotropic, kainate 3 (Rattus norvegicus, UniProt P42264) | [3H]kainate displacement | HEK-293T/17 membranes | – | – | Ki | 3 µM
Cn1cnc(Cn2c(=O)[nH]/c(=N\c3cc4cn(C)nc4cc3Cl)n(Cc3cc(F)c(F)cc3F)c2=O)n1 | CYP2C19 (Homo sapiens, UniProt P33261) | inhibitor | human liver microsomes | 30 min preincubation, preincubation without NADPH, together with: S-mephenytoin 60 µM | – | IC50 | > 100 µM
Cn1cnc(Cn2c(=O)[nH]/c(=N\c3cc4cn(C)nc4cc3Cl)n(Cc3cc(F)c(F)cc3F)c2=O)n1 | – | – | human, mild renal impairment | oral, 375 mg, treatment-related dry mouth, Severe severity | – | patients with adverse event | 0%
CSCC[C@H](N)C(=O)N[C@@H](CC(=O)O)C(=O)N[C@H](C(=O)N[C@@H](CCC(N)=O)C(=O)N[C@@H](Cc1c[nH]c2ccccc12)C(=O)N[C@@H](CCCNC(=N)N)C(=O)N[C@@H](CCCNC(=N)N)C(=O)N[C@@H](Cc1c[nH]c2ccccc12)C(=O)O)[C@@H](C)O | Toxin B, glucosyltransferase domain (Clostridioides difficile, UniProt A0A9R0CDJ3) | glucosyltransferase activity, inhibitor, UDP-Glo glucosyltransferase luminescence | – | together with: Rac1 and UDP-glucose | – | Ki | 729 µM
Nc1ncnc2c([C@@H]3N[C@H](CO)[C@@H](O)[C@H]3O)c[nH]c12 | Sudan ebolavirus | viral replication | HeLa, Boniface | 25 µM | – | inhibition | 88.3%
CC[C@H](CC[C@@H](C)[C@H]1CC[C@H]2[C@@H]3CC=C4C[C@@H](O[C@@H]5O[C@H](CO)[C@@H](O)[C@H](O)[C@H]5O)CC[C@]4(C)[C@H]3CC[C@]12C)C(C)C | Spike glycoprotein | binding, BLI | – | – | – | Kd | 130 µM
CC[C@H](C)[C@H](NC(=O)[C@H](CC(C)C)NC(=O)[C@H](Cc1c[nH]c2ccccc12)NC(=O)[C@H](CCC(N)=O)NC(=O)[C@@H](NC(=O)[C@H](Cc1ccccc1)NC(=O)[C@H](C)NC(=O)[C@H](CCCCNC(=O)COCCOCCNC(=O)COCCOCCNC(=O)CC[C@H](NC(=O)CCCCCCCCCCCCCCCCCCC(=O)O)C(=O)O)NC(=O)[C@H](CCC(N)=O)NC(=O)[C@H](C)NC(=O)[C@@H](NC(=O)[C@H](CCCCN)NC(=O)[C@H](CC(=O)O)NC(=O)[C@H](CC(C)C)NC(=O)C(C)(C)NC(=O)[C@@H](NC(=O)[C@H](CO)NC(=O)[C@H](Cc1ccc(O)cc1)NC(=O)[C@H](CC(=O)O)NC(=O)[C@H](CO)NC(=O)[C@@H](NC(=O)[C@H](Cc1ccccc1)NC(=O)[C@@H](NC(=O)CNC(=O)[C@H](CCC(=O)O)NC(=O)C(C)(C)NC(=O)[C@@H](N)Cc1ccc(O)cc1)[C@@H](C)O)[C@@H](C)O)[C@@H](C)CC)[C@@H](C)CC)C(C)C)C(=O)N[C@@H](C)C(=O)NCC(=O)NCC(=O)N1CCC[C@H]1C(=O)N[C@@H](CO)C(=O)N[C@@H](CO)C(=O)NCC(=O)N[C@@H](C)C(=O)N1CCC[C@H]1C(=O)N1CCC[C@H]1C(=O)N1CCC[C@H]1C(=O)N[C@@H](CO)C(N)=O | – | measured: anti-drug antibodies | healthy subjects | 4.5 mg, postbaseline, multiple ascending dose, titre increase ≥4-fold | – | subjects with treatment-boosted ADA | 0%
CC(=O)O[C@@H]1[C@H](N)[C@@H](OP(=O)(O)O)[C@@]2(C(=O)O)CS[C@@](O)(C(N)=O)[C@@H]1O2 | DNA-directed RNA polymerase subunit beta' / DNA-directed RNA polymerase subunit beta (rpoC/rpoB, Escherichia coli, UniProt P0A8T7+P0A8V2) | binding to elongation complex, 6-MI fluorescence titration | wild-type RNAP | 2′-deoxy RNA 3′-end Guanine | – | Kd | 3.6 ± 1 µM

For quick reference, copied from above:
Substance | target or system | assay | test system | setting | how to read | endpoint | result
CO[C@H]1[C@@H](O)[C@H](O[C@@H]2[C@@H](C)O[C@@H](O[C@H]3CC[C@@]4(C)[C@@H](CC[C@@]56O[C@@]57CC[C@@H](C(C)=O)[C@@]7(C)[C@H](OC(C)=O)[C@@H](OC(=O)c5ccccc5)[C@H]46)C3)C[C@H]2OC)O[C@H](C)[C@H]1O | Spike glycoprotein | binding, biolayer interferometry | – | – | – | Kd | 182 µM
Nc1ncnc2c([C@@H]3N[C@H](CO)[C@@H](O)[C@H]3O)c[nH]c12 | Sudan ebolavirus | viral replication | HeLa, Boniface | 25 µM | – | inhibition | 88.3%
